Measurements from different studies.
Compare with care: the assays were run in different laboratories. ± marks the error that the study gave.
Cell line: A549

| SMILES | test | setting | how to read | quantity | value |
| --- | --- | --- | --- | --- | --- |
| Cc1cc(N)c2cc(NC(=O)c3ccc4cc(C5CC5)ccc4c3)ccc2n1 | cell growth or viability, MTS |  |  | CC50 | 31.4 µM |
| CCCC1OC2CC3C4CCC5=CC(=O)C=CC5(C)C4C(O)CC3(C)C2(C(=O)COC(=O)CN2CCN(C)CC2)O1 (centres unmarked) | MTT | 72 h |  | IC5 | 13.35 ± 0.11 nM |
| CC(C)=CCc1c2c(c(O)c3c(=O)c(-c4ccc(O)cc4)coc13)CC(C(C)(C)O)O2 (centres unmarked) | cell growth or viability, MTT | 100 µg/mL |  | viability | 7.44% |
| CCCCn1cc(C(=O)O)c(=O)c2cc(F)c(Nc3cccc(OC)c3)c([N+](=O)[O-])c21 | cell growth or viability, SRB |  |  | IC50 | 80 µM |
| CSCc1ccccn1.[Cl-].[Cl-].[Ru+2].c1ccc(-c2ccnc3c2ccc2c(-c4ccccc4)ccnc23)cc1.c1ccc(-c2ccnc3c2ccc2c(-c4ccccc4)ccnc23)cc1 |  | 24 h, near dark EC50 | reference: intracellular over incubation concentration | cellular accumulation ratio | 99 |
| [Cl-].[Cl-].[Ru+2].c1ccc(-c2ccnc3c2ccc2c(-c4ccccc4)ccnc23)cc1.c1cnc2c(c1)ccc1cccnc12.c1cnc2c(c1)ccc1cccnc12 | resazurin | 72 h, added: 450 nm light, 29.1 J/cm2 | reference: dark IC50 over light IC50 | phototoxicity index | 14.8 |
| CCCCn1cc(C(=O)O)c(=O)c2cc(F)c3c(nnn3-c3ccccc3OC)c21 | cell growth, SRB | 72 h |  | IC50 | 54.4 ± 9.51 µg/mL |
| C[C@@]1(CO)CC[C@]2(C(=O)O)CC[C@]3(C)C(=CCC4[C@@]5(C)C[C@@H](O)[C@H](O)[C@@](C)(CO)C5CC[C@]43C)C2C1 (some centres unmarked) | cell growth or viability, MTT | 72 h |  | IC50 | > 100 µM |
| [Cl-].[Cl-].[Ru+2].c1ccc(-c2ccccn2)nc1.c1ccc(-c2ccccn2)nc1.c1ccc(-c2ccccn2)nc1 | resazurin | 72 h, added: 450 nm light, 29.1 J/cm2 | reference: dark IC50 over light IC50 | phototoxicity index | > 11.6 |
| CCCCn1cc(C(=O)O)c(=O)c2cc(F)c3c(nnn3-c3cccc(OC)c3)c21 | cell growth, SRB | 72 h |  | IC50 | 70.5 ± 5.28 µg/mL |
| Cc1ccc(O)c(C=NNC(=N)NO)n1 | cell growth, Coulter counter | 2 days |  | TC50 | 401 µM |
| CC1(C)CC[C@]2(C(=O)O)CC[C@]3(C)C(=CC[C@@H]4[C@@]5(C)CC[C@H](O)[C@@](C)(C(=O)O)[C@@H]5CC[C@]43C)[C@@H]2C1 | cell growth or viability, MTT | 72 h |  | IC50 | 26.5 µM |
| CC[C@H](C)[C@H](NC(=O)[C@H](CCCCN)NC(=O)[C@H](CCC(=O)O)NC(=O)[C@H](CCCCN)NC(=O)[C@H](CO)NC(=O)[C@H](CCCCN)NC(=O)[C@H](CCCNC(=N)N)NC(=O)[C@H](Cc1ccccc1)NC(=O)[C@H](Cc1ccccc1)NC(=O)[C@H](CC(=O)O)NC(=O)CNC(=O)[C@H](CC(C)C)NC(=O)[C@@H](N)CC(C)C)C(=O)NCC(=O)N[C@@H](CCCCN)C(=O)N[C@@H](CCC(=O)O)C(=O)N[C@@H](Cc1ccccc1)C(=O)N[C@@H](CCCCN)C(=O)N[C@@H](CCCNC(=N)N)C(=O)N[C@H](C(=O)N[C@H](C(=O)N[C@@H](CCC(N)=O)C(=O)N[C@@H](CCCNC(=N)N)C(=O)N[C@H](C(=O)N[C@@H](CCCCN)C(=O)N[C@@H](CC(=O)O)C(=O)N[C@@H](Cc1ccccc1)C(=O)N[C@@H](CC(C)C)C(=O)N[C@@H](CCCNC(=N)N)C(=O)N[C@@H](CC(N)=O)C(=O)N[C@@H](CC(C)C)C(=O)N[C@H](C(=O)N1CCC[C@H]1C(=O)N[C@@H](CCCNC(=N)N)C(=O)N[C@H](C(=O)N[C@@H](CCC(=O)O)C(=O)N[C@@H](CO)C(=O)O)[C@@H](C)O)C(C)C)[C@@H](C)CC)C(C)C)[C@@H](C)CC | LDH release | 24 h, 37 °C, 10% human AB serum |  | highest non-toxic concentration | < 200 µg/mL |
| CCN1CCC2(CC1)C/C(=N\NC(=O)Nc1ccccc1)c1ccccc1O2 | cell growth, MTT | 48 h |  | IC50 | 1.9 ± 0.09 µM |
| FC(F)(F)c1ccnc(-c2cc(C(F)(F)F)ccn2)c1.FC(F)(F)c1ccnc(-c2cc(C(F)(F)F)ccn2)c1.[Cl-].[Cl-].[Ru+2].c1cnc2c(c1)c1nc[nH]c1c1cccnc12 | resazurin | concentration not given, normoxia, visible light |  | photocytotoxicity | inactive |
| Cc1ccc2ccc3ccc(C)nc3c2n1.Cc1ccc2ccc3ccc(C)nc3c2n1.Clc1ccc(-c2cc(-c3ccccn3)nn2-c2ccccc2)cc1.[Cl-].[Cl-].[Ru+2] | resazurin | 72 h, added: 450 nm light, 29.1 J/cm2 | reference: dark IC50 over light IC50 | phototoxicity index | 2.1 |
| CCCCn1cc(C(=O)O)c(=O)c2cc(F)c(Nc3cc(OC)c(OC)c(OC)c3)c([N+](=O)[O-])c21 | cell growth or viability, SRB |  |  | IC50 | 45.1 µM |
| [Cl-].[Cl-].[Ru+2].c1ccc2nc(-c3ccc4ccccc4n3)ccc2c1.c1cnc2c(c1)ccc1cccnc12.c1cnc2c(c1)ccc1cccnc12 | resazurin | 72 h, added: 450 nm light, 29.1 J/cm2 | reference: dark IC50 over light IC50 | phototoxicity index | 7.2 |
| N=C(NO)NN=Cc1nccc2c([N+](=O)[O-])cccc12 | morphology |  |  | cytotoxic concentration | > 50 µM |
| CC(C)(C)c1ccc(O)c(C(=O)Nc2ccc(CN)cc2)c1 |  | 48 h |  | CC50 | > 40 µM |
| COc1cc2c(cc1O)[C@]1(O)C(=O)c3c(O)cc4c(c3O[C@@H]1CO2)C=CC(C)(C)O4 | cell growth or viability, MTT | 100 µg/mL |  | viability | 4.85% |
| CCCCn1cc(C(=O)O)c(=O)c2cc(F)c3c(nnn3-c3ccc(OC)cc3)c21 | cell growth or viability, SRB |  |  | IC50 | 125 µM |
| COc1ccc(-c2coc3c(CC=C(C)C)c(O)c(CC=C(C)C)c(O)c3c2=O)cc1O | cell growth or viability, MTT | 100 µg/mL |  | viability | 9.21% |
| CC(C)c1ccc(C(=O)Nc2ccc(CN)cc2)c(O)c1 |  | 48 h |  | CC50 | > 40 µM |
| CC(C)=CCc1cc(-c2coc3cc(O)c(CC=C(C)C)c(O)c3c2=O)ccc1O | cell growth or viability, MTT | 50 µg/mL |  | viability | 55.8% |
| Cc1ncc(COP(=O)(O)O)c(C=NNC(=N)NO)c1O | cell morphology | 100 µM |  | cytotoxicity | not toxic |

A few entries again:
| SMILES | test | setting | how to read | quantity | value |
| --- | --- | --- | --- | --- | --- |
| CC(C)=CCc1c2c(c(O)c3c(=O)c(-c4ccc(O)cc4)coc13)CC(C(C)(C)O)O2 (centres unmarked) | cell growth or viability, MTT | 100 µg/mL |  | viability | 7.44% |
| CCCCn1cc(C(=O)O)c(=O)c2cc(F)c(Nc3cccc(OC)c3)c([N+](=O)[O-])c21 | cell growth or viability, SRB |  |  | IC50 | 80 µM |
| CSCc1ccccn1.[Cl-].[Cl-].[Ru+2].c1ccc(-c2ccnc3c2ccc2c(-c4ccccc4)ccnc23)cc1.c1ccc(-c2ccnc3c2ccc2c(-c4ccccc4)ccnc23)cc1 |  | 24 h, near dark EC50 | reference: intracellular over incubation concentration | cellular accumulation ratio | 99 |
| [Cl-].[Cl-].[Ru+2].c1ccc(-c2ccnc3c2ccc2c(-c4ccccc4)ccnc23)cc1.c1cnc2c(c1)ccc1cccnc12.c1cnc2c(c1)ccc1cccnc12 | resazurin | 72 h, added: 450 nm light, 29.1 J/cm2 | reference: dark IC50 over light IC50 | phototoxicity index | 14.8 |
